Published values of several laboratories.
Protocols differ between the studies behind these lines.
Cell line: HOP-62

| Structure (SMILES) | test | conditions | how to read | measurement | value |
| --- | --- | --- | --- | --- | --- |
| COC(=O)/C=C1\C(=O)C=C2C3CC4CC(CCC4(C)N21)C3(C)NC(C)=O (stereo not shown) | cell growth, NCI screen | – | – | IC50 | 19.8 µM |
| CCCCCCCCCCCCCCCCCCOc1ccc(CC(=O)OCC[N+]2(C)CCOCC2)cc1 | SRB | 10 µM | – | growth inhibition | < 0% |
| O=c1ccn(Cc2cn(-c3cc4ccccc4oc3=O)nn2)c(=O)[nH]1 | NCI60 single-dose screen | 10 µM | – | growth percentage | 84.4% |
| C#C[C@@]1(O)[C@@H](CO)O[C@@H](n2ccc3c(N)ncnc32)[C@@H]1O | SRB | NCI-60 screen | – | TGI | 7.91 µM |
| [Br-].c1ccc2cc(Cn3c[n+](Cc4ccc5ccccc5c4)c4ccccc43)ccc2c1 | NCI60 five-dose screen | – | – | TGI | 2.98 µM |
| CCCCCCCCCCCCCCCCCCOc1cccc(CC(=O)OCC[N+]2(C)CCCCC2)c1 | SRB | 10 µM | – | growth inhibition | < 0% |
| COc1ccc(OC)c(-c2nc3ccc(-c4nc5ccc(N6CCN(C)CC6)cc5[nH]4)cc3[nH]2)c1 | SRB | 10 µM, 48 h | – | growth percent | 103% |
| Cc1cc(C)n(C(=S)[S][Au][PH](CCCCCC[PH]([Au][S]C(=S)n2nc(C)cc2C)(c2ccccc2)c2ccccc2)(c2ccccc2)c2ccccc2)n1 | cell growth, NCI-60 screen | non-small cell lung cancer | – | log10 TGI | -5.61 |
| CCCN1CCN(c2ccc3[nH]c(-c4ccc5[nH]c(-c6ccc(OCC)c(OCC)c6)nc5c4)nc3c2)CC1 | SRB | 10 µM, 48 h | – | growth percent | -64.9% |
| CCCCc1n(Cc2ccc3ccccc3c2)c2ccccc2[n+]1Cc1ccc2ccccc2c1.[Br-] | NCI60 five-dose screen | – | – | TGI | 2.55 µM |
| CCCCCCCCCCCCCCCCCCOc1ccc(CC(=O)OCC[N+](C)(C)C)cc1 | SRB | 10 µM | – | growth inhibition | < 0% |
| NNc1nc(-c2ccc(Cl)cc2)c2c(NC(=O)c3ccccc3)nnc-2[nH]1 | SRB | 10 µM, NCI60 single-dose screen | reference: untreated | cell growth | 95.5% |
| CCN(CC)c1ccc(C=NNC(=O)CSc2nc3ccccc3c(=O)n2Cc2ccc(S(N)(=O)=O)cc2)c(O)c1 | NCI five-dose screen | – | – | TGI | > 100 µM |
| O=C1NC(c2ccccc2)(c2ccccc2)C(=O)N1Cc1cn(-c2c3ccccc3nc3ccccc23)nn1 | NCI60 single-dose screen | 10 µM | – | growth percentage | 87.5% |
| CCCCN1CCN(c2ccc3[nH]c(-c4ccc5[nH]c(-c6ccc(C(F)(F)F)cc6)nc5c4)nc3c2)CC1 | SRB | 10 µM, 48 h | – | growth percent | -78.5% |
| O=C(Nc1nnc2n3c(nc(-c4ccc(Cl)cc4)c1-2)SCC3=O)c1ccccc1 | SRB | 10 µM, NCI60 single-dose screen | reference: untreated | cell growth | 85.5% |
| CN1CCN(c2ccc3[nH]c(-c4ccc5[nH]c(-c6ccc(C(F)(F)F)cc6)nc5c4)nc3c2)CC1 | SRB | 10 µM, 48 h | – | growth percent | 51.3% |
| Cc1cc(-c2ccccc2)n(-c2nc(-c3ccc(Cl)cc3)c3c(NC(=O)c4ccccc4)nnc-3[nH]2)n1 | SRB | 10 µM, NCI60 single-dose screen | reference: untreated | cell growth | 98% |
| Cn1cncc1C1=CN(c2ncnc3[nH]cnc23)CCS1 | – | lung cancer | – | TGI | 120 µM |
| CCCN1CCN(c2ccc3[nH]c(-c4ccc5[nH]c(-c6cc(OC)c(OC)c(OC)c6)nc5c4)nc3c2)CC1 | SRB | 10 µM, 48 h | – | growth percent | 84.3% |
| O=C(Nc1nnc2[nH]c(=S)[nH]c(-c3ccc(Cl)cc3)c1-2)c1ccccc1 | SRB | 10 µM, NCI60 single-dose screen | reference: untreated | cell growth | 94.7% |
| CCCCN1CCN(c2ccc3[nH]c(-c4ccc5[nH]c(-c6ccc(OCC)c(OCC)c6)nc5c4)nc3c2)CC1 | SRB | 10 µM, 48 h | – | growth percent | -69.7% |
| CCCc1n(Cc2ccc3ccccc3c2)c2ccccc2[n+]1Cc1ccc2ccccc2c1.[Br-] | NCI60 five-dose screen | – | – | TGI | 2.03 µM |
| Cc1cc(=O)[nH]c(=O)n1Cc1cn(-c2cc3ccccc3oc2=O)nn1 | NCI60 single-dose screen | 10 µM | – | growth percentage | 89.4% |
| Cc1n[nH]c2nc(-c3ccc(Cl)cc3)c3c(NC(=O)c4ccccc4)nnc-3n12 | SRB | 10 µM, NCI60 single-dose screen | reference: untreated | cell growth | 101% |
